Results pooled from the literature.
A part holds a random share of what one study measured. Substitutions count along the parent as printed.

Study 1
Target: Interferon regulatory factor 7, full length, phosphomimetic (IRF7, Homo sapiens, UniProt Q92985, residues 1-503, S471D/S472D/S475D/S476D/S477D/S483D/S484D/S487D)
Technique: protein-binding microarray
Form: double-stranded DNA, one strand shown
Sample: in vitro
Tested at: 2200 nM top
Setting: 60-bp whole probe
With: salmon DNA 0.4 mg/ml
Baseline: random background probes
Reading: higher = stronger binding
Quantity: fitted relative affinity
All sequences stand within: GCCTAGCAC … GTCTTGATTCGCTTGACGCTGCTG
Construct (chain): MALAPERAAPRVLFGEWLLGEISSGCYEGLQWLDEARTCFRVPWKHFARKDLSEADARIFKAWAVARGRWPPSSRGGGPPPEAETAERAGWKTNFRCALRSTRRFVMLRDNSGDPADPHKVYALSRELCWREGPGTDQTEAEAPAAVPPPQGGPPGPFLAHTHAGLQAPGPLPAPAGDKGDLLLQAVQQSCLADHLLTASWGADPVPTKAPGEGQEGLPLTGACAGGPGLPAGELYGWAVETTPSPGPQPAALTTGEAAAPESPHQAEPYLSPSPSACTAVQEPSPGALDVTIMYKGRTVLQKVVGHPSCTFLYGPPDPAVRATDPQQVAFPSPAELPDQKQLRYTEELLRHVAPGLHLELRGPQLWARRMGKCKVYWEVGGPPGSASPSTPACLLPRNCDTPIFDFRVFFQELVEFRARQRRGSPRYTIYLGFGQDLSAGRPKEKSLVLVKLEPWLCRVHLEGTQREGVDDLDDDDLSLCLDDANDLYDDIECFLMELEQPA
ATAGGACTGGACTTTCGGTTAGTGCTA: 5.5 z-score
TTATCAATCATTTTCGTTTTGTGCTAG: 11.2 z-score
TTAGGTCTAGGTATCGGTTAGTGCTAG: 0.04 z-score
GACGGATTCGGACTGGGGACGTGCTAG: 0.253 z-score
TTAGATATGGGGTTTCGATTAGTGCTA: 3.01 z-score
TCATTTTTTTTTTGGAAACTGTGCTAG: 1.78 z-score
GATGATATCGGGTATCGAGACGTGCTA: 0.0931 z-score
GTCGGTCTCGGACTGGGGACGTGCTAG: -0.133 z-score

Study 2
Target: PABPC1L2, full length, GST fusion (mouse, UniProt A0ABA7IW68)
Technique: RNAcompete
Form: RNA
Sample: in vitro
Tested at: 20 nM
Setting: 7-mer, probes averaged, single round
Baseline: mean of 7-mers
Reading: higher = stronger binding
Quantity: 7-mer Z-score
Residues (chain): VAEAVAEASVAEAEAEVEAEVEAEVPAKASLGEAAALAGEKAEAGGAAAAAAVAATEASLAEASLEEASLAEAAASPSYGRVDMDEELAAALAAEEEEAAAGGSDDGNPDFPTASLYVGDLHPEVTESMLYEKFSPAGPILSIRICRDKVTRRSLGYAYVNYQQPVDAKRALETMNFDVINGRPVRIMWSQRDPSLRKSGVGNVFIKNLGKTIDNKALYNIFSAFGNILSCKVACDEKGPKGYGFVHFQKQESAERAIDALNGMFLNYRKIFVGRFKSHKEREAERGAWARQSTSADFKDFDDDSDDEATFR
AUUUUAA: -0.0971
GAUUUCG: -0.378
UUGCAGA: -0.0881
UAUUAAG: 0.017
AUUGAAA: 0.441
GGGUAGG: 0.227
GGACGAU: 0.129
GCGGGCA: 0.316

Study 3
Target: TAR DNA-binding protein 43, full length, His tag (TARDBP, Homo sapiens, UniProt Q13148, residues 1-414)
Technique: RNA Bind-n-Seq
Form: RNA
Sample: in vitro
Tested at: 20 nM
Setting: 6-mer, flanks averaged, single round
With: 150 mM LiCl
Baseline: input library
Reading: higher = stronger binding
Quantity: 6-mer enrichment (R)
GAGCGA: 0.986
CUGGCU: 0.894
GCGAAU: 0.941
CUACGA: 0.795
CCCGUG: 1.04
GAGUGG: 1.52
GUGACU: 0.963
CAAAUU: 0.925

Single results of other studies
Starting sequence: viral docking peptide; CKVKRKLFGSENI
CKVKRKLFGSEAI [N12A]  normalised enrichment score (CCNE2, cyclin fold, Cln2 fusion (human); yeast growth competition, sequencing; yeast; strong parent motif; baseline: not given, higher = stronger binding): 3.12

Excerpt of the above (study 3):
GAGUGG: 1.52
GUGACU: 0.963
